Experimental data collected from several papers.
± marks the error that the study gave.
T1: PSMG1/PSMG2 heterodimer (Homo sapiens); chain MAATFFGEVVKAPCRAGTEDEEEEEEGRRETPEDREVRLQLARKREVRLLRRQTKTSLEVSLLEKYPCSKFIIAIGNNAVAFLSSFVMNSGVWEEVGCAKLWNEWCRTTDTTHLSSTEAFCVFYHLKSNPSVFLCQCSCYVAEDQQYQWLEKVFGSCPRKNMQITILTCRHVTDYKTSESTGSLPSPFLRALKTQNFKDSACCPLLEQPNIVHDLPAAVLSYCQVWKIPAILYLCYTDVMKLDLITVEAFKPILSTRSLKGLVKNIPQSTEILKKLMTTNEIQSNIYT; chain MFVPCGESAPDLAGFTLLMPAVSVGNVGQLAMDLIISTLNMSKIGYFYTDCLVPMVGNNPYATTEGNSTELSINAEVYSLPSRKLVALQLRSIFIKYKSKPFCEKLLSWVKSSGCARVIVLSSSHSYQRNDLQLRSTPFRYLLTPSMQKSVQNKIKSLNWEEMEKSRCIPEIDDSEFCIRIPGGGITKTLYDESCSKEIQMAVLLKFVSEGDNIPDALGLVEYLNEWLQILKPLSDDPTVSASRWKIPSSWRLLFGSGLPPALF
B1: bZIP50 (Oryza sativa, UniProt Q69XV0); sequence looked up; chain MDVEFFADLDLDALLASFSSSAAAAGSGVSGLFAPSPPHDAEAGSPESVSSRRPSPSREAALSEIERFLMEEGPAAEEGVGAEDFFDALLVDGGEEEEEEEGKGSEAGGSTDGDSGKENEVATPDAEKEDVEAEVDGDDPMSKKKRRQMRNRDSAMKSRERKKMYVKDLETKSKYLEAECRRLSYALQCCAAENMALRQSLLKDRPVGAATAMQESAVLTETLPLVSLLWLVSIVCLLPVPGLPNRNPVARSSAGRDLATVTGKKTSSEQQLEETLLLHGRRCKGSRARIKLDTGPFRLAAAAC
B2: SF3B1 454-1304 R625H (Homo sapiens, UniProt O75533); chain KSVNDQPSGNLPFLKPDDIQYFDKLLVDVDESTLSPEEQKERKIMKLLLKIKNGTPPMRKAALRQITDKAREFGAGPLFNQILPLLMSPTLEDQERHLLVKVIDRILYKLDDLVRPYVHKILVVIEPLLIDEDYYARVEGREIISNLAKAAGLATMISTMRPDIDNMDEYVHNTTARAFAVVASALGIPSLLPFLKAVCKSKKSWQARHTGIKIVQQIAILMGCAILPHLRSLVEIIEHGLVDEQQKVRTISALAIAALAEAATPYGIESFDSVLKPLWKGIRQHRGKGLAAFLKAIGYLIPLMDAEYANYYTREVMLILIREFQSPDEEMKKIVLKVVKQCCGTDGVEANYIKTEILPPFFKHFWQHRMALDRRNYRQLVDTTVELANKVGAAEIISRIVDDLKDEAEQYRKMVMETIEKIMGNLGAADIDHKLEEQLIDGILYAFQEQTTEDSVMLNGFGTVVNALGKRVKPYLPQICGTVLWRLNNKSAKVRQQAADLISRTAVVMKTCQEEKLMGHLGVVLYEYLGEEYPEVLGSILGALKAIVNVIGMHKMTPPIKDLLPRLTPILKNRHEKVQENCIDLVGRIADRGAEYVSAREWMRICFELLELLKAHKKAIRRATVNTFGYIAKAIGPHDVLATLLNNLKVQERQNRVCTTVAIAIVAETCSPFTVLPALMNEYRVPELNVQNGVLKSLSFLFEYIGEMGKDYIYAVTPLLEDALMDRDLVHRQTASAVVQHMSLGVYGFGCEDSLNHLLNYVWPNVFETSPHVIQAVMGALEGLRVAIGPCRMLQYCLQGLFHPARKVRDVYWKIYNSIYIGSQDALIAHYPRIYNDDKNTYIRYELDYIL
B3: REC107 1-224 (Saccharomyces cerevisiae, UniProt P21651); chain MVARGRTDEISTDVSEANSEHSLMITETSSPFRSIFSHSGKVANAGALEESDKQILEWAGKLELESMELRENSDKLIKVLNENSKTLCKSLNKFNQLLEQDAATNGNVKTLIKDLASQIENQLDKVSTAMLSKGDEKKTKSDSSYRQVLVEEISRYNSKITRHVTNKQHETEKSMRCTQEMLFNVGSQLEDVHKVLLSLSKDMHSLQTRQTALEMAFREKADHA
B4: Sgip1 69-156 (Mus musculus, UniProt Q8VD37); chain AEIDWERYNSPELDEEGYSIRPEEPGSTKGKHFYSSSESEEEEESHKKFNIKIKPLQSKDVLKNAATVDELKASIGNIALSPSPVRKS
B5: CCDC22/CCDC93 DBD dimer E410R (Homo sapiens); chain 1 GAGAKTGAPKGSRFTHSEKFTFHLEPQAQATQVSDVPATSRRPEQVTWAAQEQELESLREQLEGVNRSIEEVEADMKTLGVSFVQAESECRHSKLSTAEREQALRLKSRAVELLPDGTANLAKLQLVVENSAQRVIHLAGQWEKHRVPLLAEYRHLRKLQDCRELES; chain 2 SPEKLGTSQLHRRKVISLNKQIAQKTKHLEELRASHTSLQARYNEAKKTLTELKTYSEKLDKEQAALEKIESKADPSILQNLRALVAMNENLKSQEQEFKAHCRERMTRLQQEIENLKAERAPRGDEKT
B6: HCK 78-138 (Homo sapiens, UniProt P08631); chain SEDIIVVALYDYEAIHHEDLSFQKGDQMVVLEESGEWWKARSLATRKEGYIPSNYVARVDS
B7: MLLT3 (Homo sapiens, UniProt P42568); chain MASSCAVQVKLELGHRAQVRKKPTVEGFTHDWMVFVRGPEHSNIQHFVEKVVFHLHESFPRPKRVCKDPPYKVEESGYAGFILPIEVYFKNKEEPRKVRFDYDLFLHLEGHPPVNHLRCEKLTFNNPTEDFRRKLLKAGGDPNRSIHTSSSSSSSSSSSSSSSSSSSSSSSSSSSSSSSSSSSSSSSSSSTSFSKPHKLMKEHKEKPSKDSREHKSAFKEPSRDHNKSSKESSKKPKENKPLKEEKIVPKMAFKEPKPMSKEPKPDSNLLTITSGQDKKAPSKRPPISDSEELSAKKRKKSSSEALFKSFSSAPPLILTCSADKKQIKDKSHVKMGKVKIESETSEKKKSTLPPFDDIVDPNDSDVEENISSKSDSEQPSPASSSSSSSSSFTPSQTRQQGPLRSIMKDLHSDDNEEESDEVEDNDNDSEMERPVNRGGSRSRRVSLSDGSDSESSSASSPLHHEPPPPLLKTNNNQILEVKSPIKQSKSDKQIKNGECDKAYLDELVELHRRLMTLRERHILQQIVNLIEETGHFHITNTTFDFDLCSLDKTTVRKLQSYLETSGTS
B8: CDC48 (Saccharomyces cerevisiae, UniProt P25694); sequence looked up; chain MGEEHKPLLDASGVDPREEDKTATAILRRKKKDNMLLVDDAINDDNSVIAINSNTMDKLELFRGDTVLVKGKKRKDTVLIVLIDDELEDGACRINRVVRNNLRIRLGDLVTIHPCPDIKYATRISVLPIADTIEGITGNLFDVFLKPYFVEAYRPVRKGDHFVVRGGMRQVEFKVVDVEPEEYAVVAQDTIIHWEGEPINREDEENNMNEVGYDDIGGCRKQMAQIREMVELPLRHPQLFKAIGIKPPRGVLMYGPPGTGKTLMARAVANETGAFFFLINGPEVMSKMAGESESNLRKAFEEAEKNAPAIIFIDEIDSIAPKRDKTNGEVERRVVSQLLTLMDGMKARSNVVVIAATNRPNSIDPALRRFGRFDREVDIGIPDATGRLEVLRIHTKNMKLADDVDLEALAAETHGYVGADIASLCSEAAMQQIREKMDLIDLDEDEIDAEVLDSLGVTMDNFRFALGNSNPSALRETVVESVNVTWDDVGGLDEIKEELKETVEYPVLHPDQYTKFGLSPSKGVLFYGPPGTGKTLLAKAVATEVSANFISVKGPELLSMWYGESESNIRDIFDKARAAAPTVVFLDELDSIAKARGGSLGDAGGASDRVVNQLLTEMDGMNAKKNVFVIGATNRPDQIDPAILRPGRLDQLIYVPLPDENARLSILNAQLRKTPLEPGLELTAIAKATQGFSGADLLYIVQRAAKYAIKDSIEAHRQHEAEKEVKVEGEDVEMTDEGAKAEQEPEVDPVPYITKEHFAEAMKTAKRSVSDAELRRYEAYSQQMKASRGQFSNFNFNDAPLGTTATDNANSNNSAPSGAGAAFGSNAEEDDDLYS
B9: pduQ (Salmonella enterica, UniProt Q9XDN0); sequence looked up; chain MNTFSLQTRLYSGQGSLAVLKRFTNKHIWIICDGFLAHSPLLDTLRNALPADNRISVFSEITPDPTIHTVVQGIAQMQALQPQVVIGFGGGSAMDAAKAIVWFSQQSGINIETCVAIPTTSGTGSEVTSACVISDPDKGIKYPLFNNALYPDMAILDPELVVSVPPQITANTGMDVLTHALEAWVSPRASDFTDALAEKAAKLVFQYLPTAVEKGDCVATRGKMHNASTLAGMAFSQAGLGLNHAIAHQLGGQFHLPHGLANALLLTTVIRFNAGVPRAAKRYARLAKACGFCPAEANDIAAINALIQQIELLKQRCVLPSLAVALKEGRSDFSARIPAMVQAALADVTLRTNPRPANAEAIRELLEELL
B10: PSMA3 (Homo sapiens, UniProt P25788); chain MSSIGTGYDLSASTFSPDGRVFQVEYAMKAVENSSTAIGIRCKDGVVFGVEKLVLSKLYEEGSNKRLFNVDRHVGMAVAGLLADARSLADIAREEASNFRSNFGYNIPLKHLADRVAMYVHAYTLYSAVRPFGCSFMLGSYSVNDGAQLYMIDPSGVSYGYWGCAIGKARQAAKTEIEKLQMKEMTCRDIVKEVAKIIYIVHDEVKDKAFELELSWVGELTNGRHEIVPKDIREEAEKYAKESLKEEDESDDDNM
B11: MDM4 23-111, p53-binding domain (Homo sapiens, UniProt O15151); chain GPLGSQINQVRPKLPLLKILHAAGAQGEMFTVKEVMHYLGQYIMVKQLYDQQEQHMVYCGGDLLGELLGRQSFSVKDPSPLYDMLRKNLVTLAT
Sequence of UniProt Q03012 (whole entry, looked up): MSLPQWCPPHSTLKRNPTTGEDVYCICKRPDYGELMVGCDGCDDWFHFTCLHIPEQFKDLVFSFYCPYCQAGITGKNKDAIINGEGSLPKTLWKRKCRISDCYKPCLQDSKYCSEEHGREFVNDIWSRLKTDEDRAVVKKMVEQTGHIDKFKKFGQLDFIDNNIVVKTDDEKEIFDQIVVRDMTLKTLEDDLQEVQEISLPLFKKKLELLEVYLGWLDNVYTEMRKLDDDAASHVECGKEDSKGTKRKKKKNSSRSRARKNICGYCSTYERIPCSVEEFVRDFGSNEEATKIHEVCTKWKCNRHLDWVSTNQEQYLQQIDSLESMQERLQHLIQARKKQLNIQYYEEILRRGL
Sequence of UniProt P13382 (whole entry, looked up): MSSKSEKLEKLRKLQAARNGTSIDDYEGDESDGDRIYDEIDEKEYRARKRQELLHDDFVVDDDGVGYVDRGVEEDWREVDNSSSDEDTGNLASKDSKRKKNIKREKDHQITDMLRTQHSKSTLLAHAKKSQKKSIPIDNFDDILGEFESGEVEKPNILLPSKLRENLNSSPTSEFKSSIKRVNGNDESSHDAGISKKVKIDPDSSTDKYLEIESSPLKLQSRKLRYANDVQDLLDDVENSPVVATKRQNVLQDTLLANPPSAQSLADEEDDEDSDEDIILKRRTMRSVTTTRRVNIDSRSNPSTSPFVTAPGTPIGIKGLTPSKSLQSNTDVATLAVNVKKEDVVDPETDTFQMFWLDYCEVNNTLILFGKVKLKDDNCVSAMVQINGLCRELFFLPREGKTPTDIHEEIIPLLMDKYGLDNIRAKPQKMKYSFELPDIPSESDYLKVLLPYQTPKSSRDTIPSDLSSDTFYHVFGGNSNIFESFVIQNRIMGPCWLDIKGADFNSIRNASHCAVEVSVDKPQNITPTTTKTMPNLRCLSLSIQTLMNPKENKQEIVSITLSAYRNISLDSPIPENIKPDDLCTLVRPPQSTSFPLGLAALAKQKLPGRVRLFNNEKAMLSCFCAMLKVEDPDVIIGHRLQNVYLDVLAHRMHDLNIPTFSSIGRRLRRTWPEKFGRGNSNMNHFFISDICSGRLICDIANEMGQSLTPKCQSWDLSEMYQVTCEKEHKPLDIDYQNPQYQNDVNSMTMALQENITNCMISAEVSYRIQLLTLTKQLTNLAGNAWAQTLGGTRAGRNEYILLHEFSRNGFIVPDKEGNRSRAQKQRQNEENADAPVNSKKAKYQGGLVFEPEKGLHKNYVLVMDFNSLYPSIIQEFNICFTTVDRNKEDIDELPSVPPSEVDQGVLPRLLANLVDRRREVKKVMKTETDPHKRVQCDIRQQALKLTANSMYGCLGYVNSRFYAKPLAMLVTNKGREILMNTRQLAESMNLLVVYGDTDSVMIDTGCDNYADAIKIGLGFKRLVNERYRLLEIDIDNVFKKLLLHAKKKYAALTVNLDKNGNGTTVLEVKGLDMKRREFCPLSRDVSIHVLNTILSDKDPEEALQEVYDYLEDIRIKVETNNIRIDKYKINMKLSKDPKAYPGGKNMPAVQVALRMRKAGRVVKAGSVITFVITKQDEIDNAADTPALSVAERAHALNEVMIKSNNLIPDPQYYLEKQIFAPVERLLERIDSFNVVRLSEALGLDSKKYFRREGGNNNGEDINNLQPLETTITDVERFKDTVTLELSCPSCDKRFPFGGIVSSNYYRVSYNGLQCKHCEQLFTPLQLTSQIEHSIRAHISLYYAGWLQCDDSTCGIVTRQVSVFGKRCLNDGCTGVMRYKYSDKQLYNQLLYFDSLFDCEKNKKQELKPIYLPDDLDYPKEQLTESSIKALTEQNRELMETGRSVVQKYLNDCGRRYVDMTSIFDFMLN
Sequence of UniProt Q8TCE6 (whole entry, looked up): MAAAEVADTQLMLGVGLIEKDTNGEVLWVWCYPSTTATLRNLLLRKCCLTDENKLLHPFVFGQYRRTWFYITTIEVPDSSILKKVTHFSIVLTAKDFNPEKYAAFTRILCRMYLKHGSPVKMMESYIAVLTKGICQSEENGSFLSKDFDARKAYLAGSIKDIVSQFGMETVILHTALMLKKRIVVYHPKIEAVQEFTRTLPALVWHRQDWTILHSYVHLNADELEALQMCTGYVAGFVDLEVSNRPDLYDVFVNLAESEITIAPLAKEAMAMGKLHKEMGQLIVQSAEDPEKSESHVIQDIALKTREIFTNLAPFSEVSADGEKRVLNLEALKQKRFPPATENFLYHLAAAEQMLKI
Sequence of UniProt P51825 (whole entry, looked up): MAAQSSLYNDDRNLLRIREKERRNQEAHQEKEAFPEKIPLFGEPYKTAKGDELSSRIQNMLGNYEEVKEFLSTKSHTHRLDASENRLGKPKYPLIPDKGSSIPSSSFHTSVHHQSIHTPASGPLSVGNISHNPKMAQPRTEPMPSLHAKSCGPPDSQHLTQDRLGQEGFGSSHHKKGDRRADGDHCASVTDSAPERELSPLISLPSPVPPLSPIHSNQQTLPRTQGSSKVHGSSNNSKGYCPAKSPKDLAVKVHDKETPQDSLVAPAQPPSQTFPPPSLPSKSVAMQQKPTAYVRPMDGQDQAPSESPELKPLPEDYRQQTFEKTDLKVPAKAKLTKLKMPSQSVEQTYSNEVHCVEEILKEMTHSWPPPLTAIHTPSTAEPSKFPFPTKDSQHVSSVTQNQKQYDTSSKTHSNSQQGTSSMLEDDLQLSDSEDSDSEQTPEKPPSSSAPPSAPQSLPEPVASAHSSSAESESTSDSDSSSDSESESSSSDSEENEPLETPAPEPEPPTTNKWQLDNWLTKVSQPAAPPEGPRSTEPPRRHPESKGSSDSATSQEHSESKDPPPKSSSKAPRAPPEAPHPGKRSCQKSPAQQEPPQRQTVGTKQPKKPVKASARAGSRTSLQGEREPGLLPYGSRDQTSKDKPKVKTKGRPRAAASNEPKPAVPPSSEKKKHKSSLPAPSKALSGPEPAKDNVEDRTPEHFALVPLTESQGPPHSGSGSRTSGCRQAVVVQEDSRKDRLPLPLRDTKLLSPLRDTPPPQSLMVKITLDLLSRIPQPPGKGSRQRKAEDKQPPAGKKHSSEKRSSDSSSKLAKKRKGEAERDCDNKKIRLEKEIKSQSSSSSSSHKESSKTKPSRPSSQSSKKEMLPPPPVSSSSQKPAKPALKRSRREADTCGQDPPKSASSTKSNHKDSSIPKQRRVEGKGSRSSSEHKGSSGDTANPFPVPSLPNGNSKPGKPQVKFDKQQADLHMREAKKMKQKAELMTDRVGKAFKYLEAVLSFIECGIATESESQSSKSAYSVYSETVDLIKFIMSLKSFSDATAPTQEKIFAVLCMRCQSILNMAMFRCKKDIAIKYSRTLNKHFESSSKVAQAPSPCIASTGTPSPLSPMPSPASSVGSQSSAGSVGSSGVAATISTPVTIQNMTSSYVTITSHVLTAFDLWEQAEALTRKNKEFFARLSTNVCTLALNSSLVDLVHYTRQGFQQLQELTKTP
Sequence of UniProt O14908 (whole entry, looked up): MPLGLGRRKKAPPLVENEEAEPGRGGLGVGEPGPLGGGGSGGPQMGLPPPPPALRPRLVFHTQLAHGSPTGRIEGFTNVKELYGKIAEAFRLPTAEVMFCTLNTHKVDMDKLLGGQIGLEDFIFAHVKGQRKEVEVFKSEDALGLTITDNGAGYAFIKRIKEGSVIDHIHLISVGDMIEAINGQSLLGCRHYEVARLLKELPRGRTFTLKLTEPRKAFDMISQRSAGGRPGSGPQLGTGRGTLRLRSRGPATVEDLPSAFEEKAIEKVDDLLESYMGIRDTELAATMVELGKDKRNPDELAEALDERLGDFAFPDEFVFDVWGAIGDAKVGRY
Sequence of UniProt P20457 (whole entry, looked up): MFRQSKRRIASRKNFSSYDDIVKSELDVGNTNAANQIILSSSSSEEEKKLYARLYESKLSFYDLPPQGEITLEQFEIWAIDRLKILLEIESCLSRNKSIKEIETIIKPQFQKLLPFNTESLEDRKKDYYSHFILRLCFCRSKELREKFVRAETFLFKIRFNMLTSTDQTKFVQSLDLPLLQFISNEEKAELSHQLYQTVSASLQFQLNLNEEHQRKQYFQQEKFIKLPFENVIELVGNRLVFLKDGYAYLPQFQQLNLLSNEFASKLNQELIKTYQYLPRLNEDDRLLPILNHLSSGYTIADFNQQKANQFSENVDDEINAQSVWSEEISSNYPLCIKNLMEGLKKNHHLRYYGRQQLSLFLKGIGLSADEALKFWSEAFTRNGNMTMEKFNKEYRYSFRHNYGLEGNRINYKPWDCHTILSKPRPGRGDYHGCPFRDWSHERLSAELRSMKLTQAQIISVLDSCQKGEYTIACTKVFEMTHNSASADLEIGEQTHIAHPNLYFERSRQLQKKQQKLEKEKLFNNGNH
Sequence of UniProt P27986 (whole entry, looked up): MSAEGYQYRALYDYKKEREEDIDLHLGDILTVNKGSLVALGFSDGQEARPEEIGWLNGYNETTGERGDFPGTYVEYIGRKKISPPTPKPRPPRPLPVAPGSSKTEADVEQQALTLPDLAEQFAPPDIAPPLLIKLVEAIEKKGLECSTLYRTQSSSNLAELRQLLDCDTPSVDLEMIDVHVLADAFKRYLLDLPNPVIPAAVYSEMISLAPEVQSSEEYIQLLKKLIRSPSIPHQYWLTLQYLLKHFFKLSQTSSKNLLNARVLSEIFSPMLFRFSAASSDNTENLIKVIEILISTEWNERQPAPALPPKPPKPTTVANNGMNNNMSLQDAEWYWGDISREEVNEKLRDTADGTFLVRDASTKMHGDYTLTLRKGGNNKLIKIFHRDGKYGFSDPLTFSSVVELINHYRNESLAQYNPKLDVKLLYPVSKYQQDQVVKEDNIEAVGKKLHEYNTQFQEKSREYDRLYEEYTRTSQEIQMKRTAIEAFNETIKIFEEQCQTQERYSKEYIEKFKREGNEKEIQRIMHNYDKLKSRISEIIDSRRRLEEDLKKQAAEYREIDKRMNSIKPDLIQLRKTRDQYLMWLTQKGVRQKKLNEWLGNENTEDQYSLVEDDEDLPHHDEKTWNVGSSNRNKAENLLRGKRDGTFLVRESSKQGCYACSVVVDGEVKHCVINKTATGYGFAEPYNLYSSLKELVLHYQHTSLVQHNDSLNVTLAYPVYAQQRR

NGVTKAILEPRARVEKDYGK (gld-3 860-879 T865A (Caenorhabditis elegans, UniProt Q95ZK7); sequence looked up)  binding (fbf-2 164-575 (Caenorhabditis elegans, UniProt Q09312); fluorescence polarisation; peptide): binds
EGQAPQRRQDDEGLGSQRPQME (XRCC6 537-554 K537Q/K540Q/K551Q/K554Q (Canis lupus familiaris))  binding (KPNA2/KPNB1 (Homo sapiens); pull-down): binds
PRI2 (Saccharomyces cerevisiae, UniProt P20457)  binding (POL1 (Saccharomyces cerevisiae, UniProt P13382); mass photometry): binds
B1 (bZIP50)  binding (RISBZ1 (Oryza sativa, UniProt Q6ZLB0); pull-down; in vitro): binds
11-deoxycorticosterone  rate constant k2 (CYP11B2 (human); substrate binding, stopped-flow global kinetic fitting; purified enzyme; 3-state induced fit model, with: no adrenodoxin): 1.03 ± 0.166 s⁻¹
B2 (SF3B1 454-1304 R625H)  binding (SF3B3 (Homo sapiens, UniProt Q15393); cryo-EM): binds
Peginesatide  phosphorylation level (UT7/EPO; tyrosine phosphorylation, LC-MS/MS phosphoproteomics, trypsin, item: RICS tyrosine 752; 10 nM, 15 min, with: 10 U/mL EPO; baseline: vehicle): 4.2 fold
B3 (REC107 1-224)  binding (SPP1 (Saccharomyces cerevisiae, UniProt Q03012); pull-down): binds
B4 (Sgip1 69-156)  binding (AP2A2/AP2B1/AP2M1/AP2S1 core, lacking appendage domains (Mus musculus); cryo-EM): binds
nap1l1 (Xenopus laevis, UniProt Q4U0Y4-2)  binding (H2A.S2/H2B full length heterodimer (Xenopus laevis); pull-down): binds
FGA (Homo sapiens, UniProt P02671)  cross-linked residues (CTNNA3 (Homo sapiens, UniProt Q9UI47); cross-linking MS; with: DSSO): K476 to K681
B5 (CCDC22/CCDC93 DBD dimer E410R)  binding (DENND10 (Homo sapiens, UniProt Q8TCE6); pull-down): binds
GPTEGSDRSASSLNHTILAGVHSNDHSVV (LPAR1 336-364 (Homo sapiens, UniProt Q92633); sequence looked up)  binding (GIPC1 PDZ1 133-213 (Homo sapiens, UniProt O14908); ELISA): binds
colistin  MIC (Pseudomonas aeruginosa; clinical isolate RKI 628/16): 1 µg/mL
B6 (HCK 78-138)  binding (PIK3R1 80-333 (Homo sapiens, UniProt P27986); ITC): binds
B7 (MLLT3)  binding (AFF1 (Homo sapiens, UniProt P51825); complex purification reconstitution): binds
B8 (CDC48)  binding (UFD1/NPL4 (Saccharomyces cerevisiae); pull-down): binds
TARBP2 (Homo sapiens, UniProt Q15633)  binding (DICER1 (Homo sapiens, UniProt Q9UPY3); SEC): binds
B9 (pduQ)  binding (PduC/PduD/PduE (Salmonella enterica Typhimurium LT2); cross-linking): binds
B10 (PSMA3)  binding (T1, PSMG1/PSMG2 heterodimer (Homo sapiens); cryo-EM): binds
B11  binding (MDM4 170-260 W200S/W201G (Homo sapiens, UniProt O15151); NMR titration): binds

Repeated from above:
B8 (CDC48)  binding (UFD1/NPL4 (Saccharomyces cerevisiae); pull-down): binds
colistin  MIC (Pseudomonas aeruginosa; clinical isolate RKI 628/16): 1 µg/mL
